Published values from different studies.
Parts stem from different laboratories: compare values within a part only. Substitutions count along the parent as printed.

Series 1
Target: UBE2V1 UBC core domain (UniProt Q13404)
Method: yeast two-hybrid
Matrix: yeast
Setting: mostly zero background
Reference: not given
Reading: higher = stronger interaction
B1: VPS41 RING domain (UniProt P49754); chain KGVLVDEENICESCLSPILPSDAAKPFSVVVFHCRHMFHKECLPMPSMNSAAQFCNICSAKNRGPGSAI
B2: TRIM5 RING domain (UniProt Q9C035); chain ILVNVKEEVTCPICLELLTQPLSLDCGHSFCQACLTANHKKSMLDKGESSCPVCRISYQPENIRP
B3: MKRN1 RING domain (UniProt Q9UHC7); chain FAVQRSKDMVCGICMEVVYEKANPSERRFGILSNCNHTYCLKCIRKWRSAKQFESKIIKSCPECRITSNFVIPSE
B4: NEURL1 RING domain (UniProt O76050); chain VTPGLGQWSDECTICYEHAVDTVIYTCGHMCLCYACGLRLKKALHACCPICRRPIKDIIKT
B5: TRAF5 RING domain (UniProt O00463); chain FVERLEERYKCAFCHSVLHNPHQTGCGHRFCQHCILSLRELNTVPICPVDKEVIKSQEVFK
B6: DTX4 RING domain (UniProt Q9Y2E6); chain QKVRHPPDEDCTICMERLTAPSGYKGPQPTVKPDLVGKLSRCGHVYHIYCLVAMYNNGNKDGSLQCPTCKTIYGVKTGTQ
B7: RC3H1 RING domain (UniProt Q5TC82); chain QAPQWTDFLSCPICTQTFDETIRKPISLGCGHTVCKMCLNKLHRKACPFDQTTINTDIELL
B8: RNF208 RING domain (UniProt Q9H0X6); chain SSAAAGEPLECPTCGHSYNVTQRRPRVLSCLHSVCEQCLQILYESCPKYKFISCPTCRRETVLFTDYG
B9: SH3RF2 RING domain (UniProt Q8TEC5); chain DDLTLLDLLECPVCFEKLDVTAKVLPCQHTFCKPCLQRVFKAHKELRCPECRTPVFSNIEAL
B10: TRIM5 RING domain (UniProt Q9C035); chain LREVKLSPEGQKVDHCARHGEKLLLFCQEDGKVICWLCERSQEHRGHHTFLTEEVAREYQVKL
B11: TRIM40 RING domain (UniProt Q6P9F5); chain LQKDNQEEGVCPICQESLKEAVSTNCGHLFCRVCLTQHVEKASASGVFCCPLCRKPCSEEVLG
B12: TRIM13 RING domain (UniProt O60858); chain MELLEEDLTCPICCSLFDDPRVLPCSHNFCKKCLEGILEGSVRNSLWRPAPFKCPTCRKETSATGINS
Target sequence (chain): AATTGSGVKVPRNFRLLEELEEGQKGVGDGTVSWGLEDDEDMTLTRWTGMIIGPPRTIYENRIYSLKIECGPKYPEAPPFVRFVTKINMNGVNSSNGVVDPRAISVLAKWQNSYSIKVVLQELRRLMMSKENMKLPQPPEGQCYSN
| Molecule | lacZ reporter activity |
| --- | --- |
| B1 (VPS41 RING domain) | 0 |
| B2 (TRIM5 RING domain) | 0 |
| FQGDVDEDLICPICSGVLEEPVQAPHCEHAFCNACITQWFSQQQTCPVDRSVVTVAHLRP (RNF41 RING domain (UniProt Q9H4P4)) | 0 |
| B3 (MKRN1 RING domain) | 0 |
| B4 (NEURL1 RING domain) | 0 |
| DHGAVGQEMCCPICCSEYVKGEVATELPCHHYFHKPCVSIWLQKSGTCPVCRCMFPPPL (PJA1 RING domain (UniProt Q8NG27)) | 0 |
| B5 (TRAF5 RING domain) | 0 |
| B6 (DTX4 RING domain) | 0 |
| B7 (RC3H1 RING domain) | 0 |
| B8 (RNF208 RING domain) | 0 |
| QVDKAVFHMQSVKCLKCQEQKRAVLPCQHAALCELCAEGSECPICQPGRAHTLQS (UNK RING domain (UniProt Q9C0B0)) | 0 |
| B9 (SH3RF2 RING domain) | 0 |
| B10 (TRIM5 RING domain) | 0 |
| B11 (TRIM40 RING domain) | 0 |
| B12 (TRIM13 RING domain) | 0 |

Series 2
Target: ATF2, bZIP domain (human)
Method: DHFR protein complementation
Matrix: yeast
Setting: single substitutions, most at no-binding floor
Reference: wild-type JUN-FOS pair
Reading: higher = stronger binding
Starting sequence: JUN, bZIP domain (human); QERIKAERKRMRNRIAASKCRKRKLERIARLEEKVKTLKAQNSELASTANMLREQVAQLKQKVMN; partner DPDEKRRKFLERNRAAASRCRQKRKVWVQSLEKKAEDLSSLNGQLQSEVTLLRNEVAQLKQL
| Change | binding fitness |
| --- | --- |
| L52V | -1.49 natural log |
| E32M | -1.38 natural log |
| L38R | -1.43 natural log |
| E33L | -1.37 natural log |
| N42P | -1.49 natural log |
| A46N | -1.41 natural log |
| M51L | -1.3 natural log |
| L31C | -1.49 natural log |
| Q55T | -1.42 natural log |
| E44C | -1.47 natural log |
| Q41D | -1.49 natural log |
| L52Y | -1.48 natural log |
| M51Q | -1.25 natural log |
| A46I | -1.41 natural log |
| A49R | -1.26 natural log |
| A49E | -1.29 natural log |
| T48G | -1.49 natural log |
| E32H | -1.41 natural log |
| T37C | -1.33 natural log |
| A49L | -1.38 natural log |
| L59W | -1.43 natural log |
| L38G | -1.49 natural log |
| N42K | -1.36 natural log |
| E44F | -1.48 natural log |
| R53H | -1.47 natural log |

Series 3
Target: Prothrombin, mature alpha-thrombin (F2, Homo sapiens, UniProt P00734)
Method: aptamer microarray, sandwich
Molecule type: DNA with 2'F-ANA
Matrix: in vitro
Tested at: 200 nM
Setting: whole 15-mer aptamer, many near background
Together with: Cy3 exosite-II aptamer, 400 nM
Reading: higher = stronger binding
Strand: GGTTGGTGTGGTTGG
| Modification | mean fluorescence intensity |
| --- | --- |
| 2'F-ANA at 1 8 9 10 11 12 15 | 65.8 a.u. |
| 2'F-ANA at 4 7 8 9 10 13 | 74.4 a.u. |
| 2'F-ANA at 1 2 3 5 10 14 15 | 48.2 a.u. |
| 2'F-ANA at 4 5 10 12 13 14 15 | 46 a.u. |
| 2'F-ANA at 6 9 11 13 | 317 a.u. |
| 2'F-ANA at 3 4 6 12 14 15 | 355 a.u. |
| 2'F-ANA at 1 8 10 11 12 13 | 66.9 a.u. |
| 2'F-ANA at 4 5 8 9 13 15 | 49.5 a.u. |
| 2'F-ANA at 2 3 4 5 6 7 12 14 | 102 a.u. |
| 2'F-ANA at 1 3 4 5 7 9 10 13 15 | 45.3 a.u. |
| 2'F-ANA at 3 4 6 7 13 14 15 | 318 a.u. |
| 2'F-ANA at 1 2 10 12 14 15 | 49.3 a.u. |
| 2'F-ANA at 1 2 3 4 8 10 12 13 14 15 | 54 a.u. |
| 2'F-ANA at 1 2 3 4 10 12 13 15 | 88.6 a.u. |
| 2'F-ANA at 1 5 8 9 14 15 | 43.3 a.u. |
| 2'F-ANA at 2 3 4 6 8 10 13 14 | 180 a.u. |
| 2'F-ANA at 2 4 7 9 11 12 14 | 109 a.u. |
| 2'F-ANA at 4 5 6 9 10 15 | 46.2 a.u. |
| 2'F-ANA at 2 3 5 14 15 | 92.6 a.u. |
| 2'F-ANA at 1 4 5 6 8 10 11 12 14 | 47.7 a.u. |
| 2'F-ANA at 1 2 5 6 8 10 12 15 | 53.4 a.u. |
| 2'F-ANA at 1 8 10 11 12 14 | 105 a.u. |
| 2'F-ANA at 3 10 12 14 | 469 a.u. |
| 2'F-ANA at 3 4 5 6 8 9 14 15 | 51.5 a.u. |
| 2'F-ANA at 4 9 10 | 90.9 a.u. |

Series 4
Target: ABI1, truncated, D143A, DHFR fusion (Arabidopsis thaliana)
Method: DHFR PCA, deep sequencing
Matrix: yeast
Setting: methotrexate growth selection, single substitutions
Together with: (+)-ABA 200 µM
Reference: wild-type fitted maximum
Reading: higher = stronger binding
Starting sequence: PYL1, truncated, DHFR fusion (Arabidopsis thaliana); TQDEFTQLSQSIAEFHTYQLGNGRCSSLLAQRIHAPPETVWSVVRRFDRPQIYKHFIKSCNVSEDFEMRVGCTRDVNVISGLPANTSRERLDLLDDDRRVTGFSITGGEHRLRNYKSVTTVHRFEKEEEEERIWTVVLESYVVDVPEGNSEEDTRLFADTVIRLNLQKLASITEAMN
| Change | relative binding score |
| --- | --- |
| R132H | 101% |
| D159H | 45.9% |
| N149M | 39.3% |
| L28Y | 79.5% |
| R69A | 101% |
| R98Y | 88.2% |
| E14V | 85.2% |
| S9Y | 87.8% |
| L164Y | 91.7% |
| C60W | 2.77% |
| S9H | 80.9% |
| E147A | 99.4% |
| Y115G | -17.3% |

Series 5
Target: PABPC1L2, full length, GST fusion (mouse, UniProt A0ABA7IW68)
Method: RNAcompete
Molecule type: RNA
Matrix: in vitro
Tested at: 20 nM
Setting: 7-mer, probes averaged, single round
Reference: mean of 7-mers
Reading: higher = stronger binding
Target sequence (chain): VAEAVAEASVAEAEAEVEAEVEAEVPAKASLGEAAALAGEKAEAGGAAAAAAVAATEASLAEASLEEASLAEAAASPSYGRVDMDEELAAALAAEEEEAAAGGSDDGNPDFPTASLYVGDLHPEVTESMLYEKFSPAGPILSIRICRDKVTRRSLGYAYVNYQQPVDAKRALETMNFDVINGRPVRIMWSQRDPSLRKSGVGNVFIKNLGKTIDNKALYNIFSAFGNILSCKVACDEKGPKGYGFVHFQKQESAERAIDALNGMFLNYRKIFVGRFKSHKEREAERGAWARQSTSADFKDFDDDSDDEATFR
| Strand | 7-mer Z-score |
| --- | --- |
| UUUUUAG | 0.0261 |
| CACGGCU | -0.226 |
| CUGUAGU | -0.313 |
| GUAGGUC | -0.0554 |
| AUAACUA | 0.187 |
| CAUUAUU | -0.202 |
| CGGCAGG | 0.171 |
| AUCGGAU | -0.0699 |
| AGCGAGU | -0.0772 |
| GGCCCCG | -0.441 |
| GGGGACA | 0.383 |
| AUCUAAG | -0.0953 |
| UUCUUGG | -0.231 |
| GCUGCCC | -0.445 |
| UCUAGCC | -0.253 |
| AGUCGCC | -0.333 |

Series 6
Target: CCNE1, cyclin fold, Cln2 fusion (human)
Method: yeast growth competition, sequencing
Matrix: yeast
Setting: strong parent motif
Reference: not given
Reading: higher = stronger binding
Starting sequence: CDC25A docking peptide (human); PPHRRRLLFACSP
| Change | normalised enrichment score |
| --- | --- |
| PPHRRRLNFACSP [L8N] | 2.29 |
| PPHRRELLFACSP [R6E] | 0.562 |
| PMHRRRLLFACSP [P2M] | 1.44 |
| PYHRRRLLFACSP [P2Y] | 1.13 |
| PPHRRRHLFACSP [L7H] | 0.565 |
| PPHRRMLLFACSP [R6M] | 1.35 |
| PPHRRRLLFACAP [S12A] | 1.24 |
| PPHRRGLLFACSP [R6G] | 0.483 |
| PPHIRRLLFACSP [R4I] | 1.99 |
| PPHRRRLLFTCSP [A10T] | 2.02 |
| PPHRRRLLFGCSP [A10G] | 1.15 |
| PPHRRRLTFACSP [L8T] | 2.62 |
| PPHRRRLLFACMP [S12M] | 1.16 |
| PPHRRRLLFACHP [S12H] | 0.734 |
| PPHRRALLFACSP [R6A] | 0.52 |
| PPHRRRLLFAQSP [C11Q] | 1.73 |
| PPQRRRLLFACSP [H3Q] | 0.691 |
| PPHRRRLLFACSI [P13I] | 1.56 |

For quick reference, copied from above (series 1):
| Molecule | lacZ reporter activity |
| --- | --- |
| B11 (TRIM40 RING domain) | 0 |
| DHGAVGQEMCCPICCSEYVKGEVATELPCHHYFHKPCVSIWLQKSGTCPVCRCMFPPPL (PJA1 RING domain (UniProt Q8NG27)) | 0 |
| B7 (RC3H1 RING domain) | 0 |
| QVDKAVFHMQSVKCLKCQEQKRAVLPCQHAALCELCAEGSECPICQPGRAHTLQS (UNK RING domain (UniProt Q9C0B0)) | 0 |
| B1 (VPS41 RING domain) | 0 |
| B9 (SH3RF2 RING domain) | 0 |
| B6 (DTX4 RING domain) | 0 |
